Published values gathered from unrelated publications.
Compare with care: the assays were run in different laboratories. “And” joins repeats or separate records; there may be more than shown.
CDK13: Cyclin-dependent kinase 13 (CDK13, Homo sapiens, UniProt Q14004)
CDK13 with cyclin K: Cyclin-dependent kinase 13, with cyclin K (CDK13, Homo sapiens, UniProt Q14004)

Compound | target | assay | system | conditions | scale | endpoint | value
C=CC(=O)N1CCc2ccc(-n3c(=O)ccc4cnc5ccc(-c6cnn(C)c6)cc5c43)cc21 | CDK13 | KINOMEscan | – | 1 µM | reference: DMSO control | remaining binding | 92%
Cc1ccc(-c2c(/C=C(\C#N)C(=O)NC(C)C)n(CCCO)c3ncnc(N)c23)cc1 | CDK13 | cell-free assay, competition with immobilised ligand | – | 1 µM | – | remaining binding | 100%
Cc1cnc2nc1Nc1cccc(c1)COC/C=C/COCc1cc(ccc1OCCN1CCOCC1)N2 | CDK13 | cell-free assay | – | 0.1 µM | – | remaining signal | 76%
CN1C[C@@H](c2c[nH]c3cc(Br)ccc23)NC[C@@H]1c1c[nH]c2cc(Br)ccc12 | CDK13 with cyclin K | enzyme activity, inhibitor | – | 10 µM | – | remaining activity | 89%
Nc1ncc2c(n1)-c1c([nH]c3ccc(C4=CCOCC4)cc13)CCC2 | CDK13 | binding, competition with immobilised ligand | – | 1 µM | – | remaining binding | 100%
COc1cc(Nc2nc(C)cc(-c3cnn4nc(OC)ccc34)n2)cc(C(F)(F)F)c1 | CDK13 | inhibitor | – | 1 µM, CDC2L5 | reference: control | remaining activity | 100%
CNC1C[S+]2CC[S+]3CC[S+](C1)[Ru-4]321([N]=C=S)[n]2c3ccc(OC)cc3c3c4c(c5cc(F)c[n+]1c5c32)C(=O)NC4=O (centres unmarked) | CDK13 | – | – | 0.1 µM | – | remaining activity | 95%
CN1CC[C@@H](COc2cnc(C#N)cc2-c2ccn3nc(NC(=O)C4CC4)cc3c2)C1 | CDK13 with cyclin K | enzyme activity, inhibitor | – | 1 µM | – | inhibition | -15%
CC(C)=CC1OC(C)(C)C2C=C3C(=O)C(Cl)=CC(O)C3C3C(O)C4OC4C(=O)C132 (centres unmarked) | CDK13 | cell-free assay, competition with immobilised ligand | – | 10 µM | – | remaining binding | 67%
COc1cc(Nc2nccc(-c3cnn4nc(OC)ccc34)n2)cc(C(F)(F)F)c1 | CDK13 | binding, competition with immobilised ligand | – | 1 µM | – | remaining binding | 98%
CCn1cc(C(=O)O)c(=O)c2c(N)c(F)c(NC3CCCCC3)cc21 | CDK13 with cyclin K | kinase activity | – | 0.1 µM, with: ATP at Km | – | inhibition | 5.7%
CNC(=O)C1CCN(c2cc(C)c(F)cc2NC(=O)c2ccc(-c3cc(O)ccc3C)c(C)c2)CC1 | CDK13 | binding, competition with immobilised ligand | – | 1 µM | – | remaining binding | 100%
C=CC(=O)N1CCCC(n2c(=O)c3ncccc3n(Cc3ccc(Oc4ccccc4)cc3)c2=O)C1 (centres unmarked) | CDK13 | cell-free assay, competition with immobilised ligand | – | 1 µM | – | remaining binding | 73%
C=CC(=O)N1Cc2nc(-c3cc(-c4cc(Cl)cnc4Cl)c(F)cc3F)n(-c3ccncn3)c2C1 | CDK13 with cyclin K | cell-free assay, inhibitor | – | 1 µM | – | inhibition | 5.5%
N[C@H]1CC[C@H](Nc2nccc(-c3cccnc3Oc3ccc(NC(=O)NC4CC4)c4ccccc34)n2)CC1 | CDK13 | kinobead competition pulldown | HEK293/HCT116 lysate mixture | 10 µM, 1 h, 4 °C | lower = stronger competition | log2 LFQ intensity | 21.9 and 20.3 and 19.8 and 19.2
CNC(=O)C[C@H](Cc1ccc(C#N)cc1)NC(=O)c1cc(-c2ccc(CN[C@H](C)c3ccc(C)cc3)o2)ccc1Cl | CDK13 with cyclin K | enzyme activity, inhibitor | – | 1 µM | – | activity vs control | 110%
COc1c(Cl)cccc1Nc1c(-c2ccncc2C#C[C@@]2(C)CCCN2C(=O)/C=C/CN(C)C)[nH]c2c1C(=O)NCC2 | CDK13 | binding, competition with immobilised ligand | – | 3 µM | – | remaining binding | 95%

Repeated from above:
Compound | target | assay | system | conditions | scale | endpoint | value
CNC(=O)C[C@H](Cc1ccc(C#N)cc1)NC(=O)c1cc(-c2ccc(CN[C@H](C)c3ccc(C)cc3)o2)ccc1Cl | CDK13 with cyclin K | enzyme activity, inhibitor | – | 1 µM | – | activity vs control | 110%
COc1c(Cl)cccc1Nc1c(-c2ccncc2C#C[C@@]2(C)CCCN2C(=O)/C=C/CN(C)C)[nH]c2c1C(=O)NCC2 | CDK13 | binding, competition with immobilised ligand | – | 3 µM | – | remaining binding | 95%
CNC(=O)C1CCN(c2cc(C)c(F)cc2NC(=O)c2ccc(-c3cc(O)ccc3C)c(C)c2)CC1 | CDK13 | binding, competition with immobilised ligand | – | 1 µM | – | remaining binding | 100%
